Published values from different studies.
Each numbered part is a random draw from the data of one study; scales do not carry over between parts. Several values in a cell are separate wells, animals, samples, runs or records.
Sequence of UniProt P42336 (whole entry, unmodified, looked up): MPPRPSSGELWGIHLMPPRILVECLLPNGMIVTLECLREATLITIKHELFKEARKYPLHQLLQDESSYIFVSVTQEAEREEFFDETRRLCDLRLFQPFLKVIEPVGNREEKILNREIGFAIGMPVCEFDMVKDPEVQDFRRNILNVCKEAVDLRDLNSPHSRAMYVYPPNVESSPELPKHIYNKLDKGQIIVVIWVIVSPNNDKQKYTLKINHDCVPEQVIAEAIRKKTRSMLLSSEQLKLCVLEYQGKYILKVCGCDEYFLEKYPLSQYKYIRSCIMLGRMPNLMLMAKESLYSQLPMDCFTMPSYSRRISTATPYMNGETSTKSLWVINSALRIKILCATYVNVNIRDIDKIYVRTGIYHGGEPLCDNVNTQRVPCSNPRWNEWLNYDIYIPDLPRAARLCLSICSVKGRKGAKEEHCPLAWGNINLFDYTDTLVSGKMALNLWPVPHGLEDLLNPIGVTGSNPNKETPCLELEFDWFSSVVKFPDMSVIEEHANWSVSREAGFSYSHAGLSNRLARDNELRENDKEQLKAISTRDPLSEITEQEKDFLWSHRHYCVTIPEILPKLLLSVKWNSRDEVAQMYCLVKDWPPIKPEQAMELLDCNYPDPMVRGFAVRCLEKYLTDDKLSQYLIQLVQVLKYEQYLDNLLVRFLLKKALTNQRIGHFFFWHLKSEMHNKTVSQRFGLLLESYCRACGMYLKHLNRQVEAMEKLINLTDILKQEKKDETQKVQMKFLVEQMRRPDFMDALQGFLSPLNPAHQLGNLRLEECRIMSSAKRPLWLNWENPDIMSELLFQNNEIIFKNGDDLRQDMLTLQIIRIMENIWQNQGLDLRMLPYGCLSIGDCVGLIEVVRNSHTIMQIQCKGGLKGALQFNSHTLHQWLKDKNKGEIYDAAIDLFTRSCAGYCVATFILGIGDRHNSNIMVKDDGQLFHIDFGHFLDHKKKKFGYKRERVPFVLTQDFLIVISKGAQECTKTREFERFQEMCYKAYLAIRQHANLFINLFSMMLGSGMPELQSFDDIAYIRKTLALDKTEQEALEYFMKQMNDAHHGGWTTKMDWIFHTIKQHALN
Sequence of UniProt P68400 (whole entry, looked up): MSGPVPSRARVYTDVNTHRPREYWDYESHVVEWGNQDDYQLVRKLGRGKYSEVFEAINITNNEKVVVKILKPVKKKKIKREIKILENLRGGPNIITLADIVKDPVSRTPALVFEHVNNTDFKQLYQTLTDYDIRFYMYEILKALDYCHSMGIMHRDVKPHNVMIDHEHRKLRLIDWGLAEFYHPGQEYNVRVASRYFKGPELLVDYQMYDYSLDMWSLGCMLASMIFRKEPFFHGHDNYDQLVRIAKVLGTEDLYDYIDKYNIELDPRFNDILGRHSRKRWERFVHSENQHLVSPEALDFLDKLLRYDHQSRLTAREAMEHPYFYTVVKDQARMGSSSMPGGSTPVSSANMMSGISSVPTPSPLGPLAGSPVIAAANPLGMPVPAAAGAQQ
Sequence of UniProt Q5S007 (whole entry, unmodified, looked up): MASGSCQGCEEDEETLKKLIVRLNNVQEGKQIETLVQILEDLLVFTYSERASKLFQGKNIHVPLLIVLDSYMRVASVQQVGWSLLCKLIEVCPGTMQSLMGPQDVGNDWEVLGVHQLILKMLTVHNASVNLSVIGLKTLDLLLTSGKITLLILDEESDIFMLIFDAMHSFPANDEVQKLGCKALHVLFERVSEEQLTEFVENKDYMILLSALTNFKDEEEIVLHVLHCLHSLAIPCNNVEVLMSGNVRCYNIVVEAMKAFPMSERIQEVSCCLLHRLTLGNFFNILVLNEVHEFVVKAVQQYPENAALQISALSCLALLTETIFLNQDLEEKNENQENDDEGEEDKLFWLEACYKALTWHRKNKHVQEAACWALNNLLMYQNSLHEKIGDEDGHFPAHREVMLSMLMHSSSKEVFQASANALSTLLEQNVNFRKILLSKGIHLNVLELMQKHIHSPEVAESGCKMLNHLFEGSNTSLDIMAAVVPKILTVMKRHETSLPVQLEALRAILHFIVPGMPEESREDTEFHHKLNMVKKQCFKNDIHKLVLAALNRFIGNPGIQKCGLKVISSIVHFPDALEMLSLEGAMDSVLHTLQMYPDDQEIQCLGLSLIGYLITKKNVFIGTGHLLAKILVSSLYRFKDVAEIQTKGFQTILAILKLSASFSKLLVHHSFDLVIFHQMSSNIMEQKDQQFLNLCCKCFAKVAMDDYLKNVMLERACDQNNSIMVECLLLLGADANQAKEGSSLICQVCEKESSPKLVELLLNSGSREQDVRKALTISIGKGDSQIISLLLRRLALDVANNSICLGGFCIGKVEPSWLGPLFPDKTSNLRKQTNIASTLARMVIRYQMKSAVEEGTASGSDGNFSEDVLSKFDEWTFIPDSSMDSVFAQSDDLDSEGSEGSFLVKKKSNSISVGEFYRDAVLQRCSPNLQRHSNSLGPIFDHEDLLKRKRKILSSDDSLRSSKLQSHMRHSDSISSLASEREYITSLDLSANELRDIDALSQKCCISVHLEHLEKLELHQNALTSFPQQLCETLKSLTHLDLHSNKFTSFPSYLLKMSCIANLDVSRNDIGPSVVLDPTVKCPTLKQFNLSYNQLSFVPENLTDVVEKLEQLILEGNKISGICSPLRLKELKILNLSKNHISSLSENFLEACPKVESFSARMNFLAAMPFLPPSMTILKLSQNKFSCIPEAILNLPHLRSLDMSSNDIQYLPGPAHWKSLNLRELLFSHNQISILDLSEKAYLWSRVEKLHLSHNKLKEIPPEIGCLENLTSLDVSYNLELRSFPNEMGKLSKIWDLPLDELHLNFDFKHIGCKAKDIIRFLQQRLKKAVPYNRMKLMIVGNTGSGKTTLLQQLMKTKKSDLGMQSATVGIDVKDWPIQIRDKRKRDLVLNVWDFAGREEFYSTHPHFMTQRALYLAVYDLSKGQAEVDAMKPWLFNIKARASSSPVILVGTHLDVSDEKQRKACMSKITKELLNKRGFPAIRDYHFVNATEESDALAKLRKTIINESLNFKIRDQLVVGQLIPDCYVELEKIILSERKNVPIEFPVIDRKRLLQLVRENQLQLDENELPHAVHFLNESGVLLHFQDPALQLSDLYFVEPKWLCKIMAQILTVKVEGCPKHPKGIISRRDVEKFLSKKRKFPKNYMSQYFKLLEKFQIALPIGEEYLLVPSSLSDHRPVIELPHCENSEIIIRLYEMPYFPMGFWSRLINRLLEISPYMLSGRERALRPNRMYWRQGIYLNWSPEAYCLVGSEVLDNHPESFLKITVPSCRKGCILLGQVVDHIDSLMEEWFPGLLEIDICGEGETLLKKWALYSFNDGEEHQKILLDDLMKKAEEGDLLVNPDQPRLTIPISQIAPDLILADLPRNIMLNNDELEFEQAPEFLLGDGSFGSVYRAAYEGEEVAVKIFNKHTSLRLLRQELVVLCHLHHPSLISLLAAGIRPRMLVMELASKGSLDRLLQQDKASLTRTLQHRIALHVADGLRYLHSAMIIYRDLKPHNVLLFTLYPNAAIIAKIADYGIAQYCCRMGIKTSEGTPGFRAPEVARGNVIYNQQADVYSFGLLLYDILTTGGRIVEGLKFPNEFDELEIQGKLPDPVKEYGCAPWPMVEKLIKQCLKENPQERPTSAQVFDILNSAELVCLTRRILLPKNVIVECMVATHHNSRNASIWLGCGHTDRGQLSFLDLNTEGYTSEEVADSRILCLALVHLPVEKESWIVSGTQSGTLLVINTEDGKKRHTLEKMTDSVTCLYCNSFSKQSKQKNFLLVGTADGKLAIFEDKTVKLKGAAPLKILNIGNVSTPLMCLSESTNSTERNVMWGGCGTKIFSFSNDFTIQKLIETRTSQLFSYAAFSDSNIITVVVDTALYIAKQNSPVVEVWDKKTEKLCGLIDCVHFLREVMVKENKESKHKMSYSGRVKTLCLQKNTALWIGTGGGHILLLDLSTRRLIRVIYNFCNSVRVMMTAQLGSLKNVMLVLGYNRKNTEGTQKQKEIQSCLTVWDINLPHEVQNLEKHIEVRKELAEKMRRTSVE
Sequence of UniProt Q8IVH8 (whole entry, looked up): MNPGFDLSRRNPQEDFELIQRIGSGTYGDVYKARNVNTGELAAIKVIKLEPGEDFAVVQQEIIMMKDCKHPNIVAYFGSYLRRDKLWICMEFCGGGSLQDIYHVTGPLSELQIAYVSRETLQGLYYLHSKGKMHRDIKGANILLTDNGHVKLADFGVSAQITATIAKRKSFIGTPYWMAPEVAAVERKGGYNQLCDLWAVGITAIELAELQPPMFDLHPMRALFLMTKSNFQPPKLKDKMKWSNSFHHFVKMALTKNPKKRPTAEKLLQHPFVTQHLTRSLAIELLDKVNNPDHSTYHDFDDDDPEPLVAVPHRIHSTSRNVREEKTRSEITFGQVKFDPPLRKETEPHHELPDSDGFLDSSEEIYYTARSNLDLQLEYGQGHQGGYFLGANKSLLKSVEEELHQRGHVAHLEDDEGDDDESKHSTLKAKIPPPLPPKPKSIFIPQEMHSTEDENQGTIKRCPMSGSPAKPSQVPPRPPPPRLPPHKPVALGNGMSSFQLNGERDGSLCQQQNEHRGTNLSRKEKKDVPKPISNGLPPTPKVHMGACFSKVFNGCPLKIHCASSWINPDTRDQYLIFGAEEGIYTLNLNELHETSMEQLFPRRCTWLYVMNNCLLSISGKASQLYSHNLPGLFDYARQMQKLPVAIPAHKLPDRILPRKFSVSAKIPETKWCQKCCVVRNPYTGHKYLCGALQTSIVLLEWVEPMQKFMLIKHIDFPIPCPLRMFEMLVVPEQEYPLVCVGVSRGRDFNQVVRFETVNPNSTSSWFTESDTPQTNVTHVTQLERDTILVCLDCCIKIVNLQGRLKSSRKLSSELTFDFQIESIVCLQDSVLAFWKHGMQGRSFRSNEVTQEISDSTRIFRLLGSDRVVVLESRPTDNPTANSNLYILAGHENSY

Study 1
SMILES: Cc1cc(NC(=O)c2cccc(S(F)(F)(F)(F)F)c2)cc(-n2ccn3nc(-c4cccnc4)cc23)c1
Observed: cell-free assay
Technique: competition with immobilised ligand
Tested at: 1 µM
Endpoint: remaining binding
BRAF (Homo sapiens, UniProt P15056): 43.5%
RET (Homo sapiens, UniProt P07949, V804M): 74.2%
ALK (Homo sapiens, UniProt Q9UM73): 68.1%
PLK3 (Homo sapiens, UniProt Q9H4B4): 69.4%
MAP4K3 (Homo sapiens, UniProt Q8IVH8): 100%
PIK3CA (Homo sapiens, UniProt P42336, H1047L): 100%
STK24 (Homo sapiens, UniProt Q9Y6E0): 100%
ACVR2B (Homo sapiens, UniProt Q13705): 100%
CSNK2A1 (Homo sapiens, UniProt P68400): 66.7%
PIK3CA (Homo sapiens, UniProt P42336, E545A): 69.2%
CDK11B (Homo sapiens, UniProt P21127): 100%
BUB1 (Homo sapiens, UniProt O43683): 100%
PRPF4B (Homo sapiens, UniProt Q13523): 99.7%
STK35 (Homo sapiens, UniProt Q8TDR2): 100%
FLT3 (Homo sapiens, UniProt P36888, R834Q): 100%
LRRK2 (Homo sapiens, UniProt Q5S007, G2019S): 81.3%
FLT3 (Homo sapiens, UniProt P36888, N841I): 100%

Study 2
Target: Bromodomain-containing protein 4, BD1 (BRD4, Homo sapiens, UniProt O60885)
Observed: acetyl-histone H4 peptide binding
Technique: AlphaScreen displacement
Tested at: 50 µM
Endpoint: inhibition
N#CC(C(=O)C1CC1)=C1Nc2ccccc2S1: 9.3%
COc1ccc(-c2nnc3ccc(SCC(=O)N4CCCCCC4)nn23)cc1OC: 13%
O=C(CSc1ccc2nnc(-c3ccc(Cl)cc3)n2n1)Nc1nccs1: 10.4%
CCN(CC)c1ccc(Nc2nc(-c3c(C)nc4ccccn34)cs2)cc1: 97.3%
COc1ccc(-c2nnc3ccc(SC(C(C)=O)C(C)=O)nn23)cc1OC: 33.7%
COc1ccc(OC)c(NC(=O)c2cc(-c3cc(Cl)ccc3O)n[nH]2)c1: 31.5%
O=C(CSc1ccc2nnc(-c3ccc(Cl)cc3)n2n1)N1CCOCC1: 5.7%
CC(=O)Nc1cn2c(NC(=O)c3cccnc3)c(Cc3ccccc3)nc2cn1: 9.4%
Cc1ccc(C(=O)O)cc1-c1ccc(C=C2NC(=O)N(c3ccccc3)C2=O)o1: 1.1%
CCOC(=O)CC(=O)CSc1ccc2nnc(-c3ccc(OC)c(OC)c3)n2n1: 15.6%
CCC(C)(C)C1CCc2sc3nc[nH]c(=O)c3c2C1 (stereo not drawn): 8%

Study 3
Compound: Oc1ccc(Nc2nc(-c3ccc(Cl)cc3)cs2)cc1
Observed: enzyme activity
Action: inhibitor
Tested at: 0.5 µM
Baseline: control
Endpoint: remaining activity
PRKG1 (Homo sapiens, UniProt Q13976): 98.5%
EPHA5 (Homo sapiens, UniProt P54756): 92.6%
STK38 (Homo sapiens, UniProt Q15208): 98.2%
MAP2K6 (Homo sapiens, UniProt P52564): 94%
MAP4K2 (Homo sapiens, UniProt Q12851): 103%
MKNK2 (Homo sapiens, UniProt Q9HBH9): 84.5%
PRKCD (Homo sapiens, UniProt Q05655): 86.9%
MAPK12 (Homo sapiens, UniProt P53778): 106%
KIT (Homo sapiens, UniProt P10721): 92%
NEK4 (Homo sapiens, UniProt P51957): 104%
AKT3 (Homo sapiens, UniProt Q9Y243): 105%
LRRK2 (Homo sapiens, UniProt Q5S007): 98.7%
CSNK2A1 (Homo sapiens, UniProt P68400): 101%
BTK (Homo sapiens, UniProt Q06187): 107%
PRKCI (Homo sapiens, UniProt P41743): 99.5%
LYN (Homo sapiens, UniProt P07948): 100%
IRAK4 (Homo sapiens, UniProt Q9NWZ3): 111%
MAP3K10 (Homo sapiens, UniProt Q02779): 100%
MAPK13 (Homo sapiens, UniProt O15264): 107%
Cyclin-dependent kinase 9, with cyclin T1 (CDK9, Homo sapiens, UniProt P50750): 87.8%
CSNK1A1 (Homo sapiens, UniProt P48729): 96.4%
CHEK1 (Homo sapiens, UniProt O14757): 99.4%
PLK2 (Homo sapiens, UniProt Q9NYY3): 105%

Study 4
Cell line: mouse MPNST tumor cells
Technique: high-content nuclear imaging
Measured: cell number
Tested at: 10 µM
Time: 12 h
Setting: mean of 2 replicates
Baseline: plate mean
Reading: higher = more cells
Endpoint: nuclei count
CC(C)(C(=O)O)c1ccc(C(O)CCCN2CCC(C(O)(c3ccccc3)c3ccccc3)CC2)cc1 (stereo not drawn): 0.64 z-score and 1.16 z-score
CCC(C)n1ncn(-c2ccc(N3CCN(c4ccc(OCC5COC(Cn6cncn6)(c6ccc(Cl)cc6Cl)O5)cc4)CC3)cc2)c1=O (stereo not drawn): 3.92 z-score and -4.88 z-score
Cc1ccc(S(=O)(=O)NC(=O)NN2CC3CCCC3C2)cc1 (stereo not drawn): 0.115 z-score
CCC(=O)NCC[C@@H]1CCc2ccc3c(c21)CCO3: 0.858 z-score and 1.4 z-score
COC(=O)Nc1nc2cc(C(=O)c3ccccc3)ccc2[nH]1: -4.72 z-score
Cc1nc(C)c(Cl)c(O)c1Cl: 1.26 z-score
Cc1ccc(C(=O)N(CCCN)[C@@H](c2oc3cc(Cl)ccc3c(=O)c2Cc2ccccc2)C(C)C)cc1: -4.9 z-score
COc1cc(-c2cc(-c3cccc(O)c3)cnc2N)cc(OC)c1OC: 0.209 z-score
COC(=O)C(Cc1ccc(OCCn2c(=O)sc3cc(C(=O)c4ccccc4)ccc32)cc1)C(=O)OC: -0.0778 z-score
COc1ccccc1CN[C@H]1CCCN[C@H]1c1ccccc1: 3.34 z-score
CCCCOc1ccc(OCCCN2CCOCC2)cc1: 3.82 z-score
COc1ccc2cc(CCC(C)=O)ccc2c1: 2.13 z-score
CN(C)c1cccc(Oc2cnc(Nc3cccc(O)c3)nc2)c1: 0.6 z-score
CCOc1ccc(Cc2nccc3cc(OCC)c(OCC)cc23)cc1OCC: 1.75 z-score
Cc1ccc(-c2ncc[nH]2)cc1NC(=O)c1ccc(OCc2ccccn2)cc1: 4.66 z-score

For quick reference, copied from above (study 1):
PIK3CA (Homo sapiens, UniProt P42336, H1047L): 100%
STK24 (Homo sapiens, UniProt Q9Y6E0): 100%
ACVR2B (Homo sapiens, UniProt Q13705): 100%
CSNK2A1 (Homo sapiens, UniProt P68400): 66.7%
PIK3CA (Homo sapiens, UniProt P42336, E545A): 69.2%
CDK11B (Homo sapiens, UniProt P21127): 100%
